Measurements from different studies.
Each numbered part is a random draw from the data of one study; scales do not carry over between parts. Changes are numbered by the printed parent chain.
Sequence of UniProt Q9NY57 (whole entry, looked up): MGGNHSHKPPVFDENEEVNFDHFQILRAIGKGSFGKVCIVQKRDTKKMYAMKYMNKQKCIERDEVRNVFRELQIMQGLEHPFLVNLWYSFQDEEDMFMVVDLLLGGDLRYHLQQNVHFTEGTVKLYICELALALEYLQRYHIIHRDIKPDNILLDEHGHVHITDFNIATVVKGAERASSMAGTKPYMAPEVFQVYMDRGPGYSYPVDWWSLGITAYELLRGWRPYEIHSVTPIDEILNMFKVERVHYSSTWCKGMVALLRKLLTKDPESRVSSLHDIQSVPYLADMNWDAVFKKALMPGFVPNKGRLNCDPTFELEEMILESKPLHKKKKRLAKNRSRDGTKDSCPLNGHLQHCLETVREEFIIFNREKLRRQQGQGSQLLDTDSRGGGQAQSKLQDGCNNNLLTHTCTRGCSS

Set 1 — target: Sox, HMG box (Pigoraptor chileana); method: Spec-seq; molecule type: double-stranded DNA, one strand shown; matrix: in vitro; concentration: not given; notes: whole probe, mean of replicates; baseline: not given; direction: lower = stronger binding; shared flanks, not repeated: GAGTCGTCTCGTCAGCAC … CCGTAGAGCACTCAGGTC
Target sequence (chain): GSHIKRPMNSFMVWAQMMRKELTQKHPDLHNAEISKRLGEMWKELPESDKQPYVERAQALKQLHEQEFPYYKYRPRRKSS
Oligonucleotide	relative binding energy
CATTGAA	-0.581 ln ratio
ATCAGTT	-0.0431 ln ratio
CATTGAG	-0.48 ln ratio
CATTAGC	0.265 ln ratio
CATGTTT	1.02 ln ratio
CATTAAT	0.00516 ln ratio
CATTACG	0.137 ln ratio
CATATAG	-0.28 ln ratio

Set 2 — target: CEP164, C-terminal peptide (human); method: DHFR complementation, deep sequencing; matrix: yeast; baseline: wild type; direction: higher = weaker binding
Notes: single substitutions, model-inferred values
Starting sequence: PDZK1, PDZ domain 2 (human); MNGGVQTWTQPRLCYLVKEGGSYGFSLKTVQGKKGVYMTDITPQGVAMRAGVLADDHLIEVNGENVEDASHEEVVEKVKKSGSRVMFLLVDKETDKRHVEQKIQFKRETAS; partner HNRVKVYRF
Variant	binding free energy change [kcal/mol]
M48C	-0.112
S22Y	-0.194
V85R	1.41
N65Q	0.565
Q44L	0.191
P11C	0.231
G21V	0.0626
G35K	0.649

Set 3 — method: RNA Bind-n-Seq; molecule type: RNA; matrix: in vitro; concentration: 20 nM; notes: 6-mer, flanks averaged, single round; together with: 150 mM LiCl; baseline: input library; direction: higher = stronger binding
Target: TAR DNA-binding protein 43, full length, His tag (TARDBP, Homo sapiens, UniProt Q13148, residues 1-414)
Oligonucleotide	6-mer enrichment (R)
CCAGUC	0.864
CAUGGC	0.918
CCGUCG	0.936
AGAAGG	1.04
CUAUGG	0.936
ACUUAU	0.947
GUCAUU	0.97
AACAGG	0.891

Single results of other studies
SMILES	target	effect on	method	concentration	quantity	result
CCC(=O)N[C@@H]1CC[C@H](C(=O)N(C)c2ccc(-c3nc4ccccc4o3)cc2)C1	Serine/threonine-protein kinase 32B (STK32B, Homo sapiens, UniProt Q9NY57)	cell-free assay	competition with immobilised ligand	1 µM	remaining binding	71%

Excerpt of the above (set 2):
Variant	binding free energy change [kcal/mol]
S22Y	-0.194
P11C	0.231
V85R	1.41
